Results gathered from unrelated publications.
± marks the error that the study gave.
lecA: PA-I galactophilic lectin (lecA, Pseudomonas aeruginosa, UniProt Q05097)
UniProt Q05097, sequence (whole entry, looked up): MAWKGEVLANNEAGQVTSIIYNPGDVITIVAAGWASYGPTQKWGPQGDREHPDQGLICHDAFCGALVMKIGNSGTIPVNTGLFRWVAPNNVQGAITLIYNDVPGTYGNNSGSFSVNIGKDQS
Complement C3: Complement C3 (Homo sapiens, UniProt P01024)
UniProt P01024, sequence (whole entry, looked up): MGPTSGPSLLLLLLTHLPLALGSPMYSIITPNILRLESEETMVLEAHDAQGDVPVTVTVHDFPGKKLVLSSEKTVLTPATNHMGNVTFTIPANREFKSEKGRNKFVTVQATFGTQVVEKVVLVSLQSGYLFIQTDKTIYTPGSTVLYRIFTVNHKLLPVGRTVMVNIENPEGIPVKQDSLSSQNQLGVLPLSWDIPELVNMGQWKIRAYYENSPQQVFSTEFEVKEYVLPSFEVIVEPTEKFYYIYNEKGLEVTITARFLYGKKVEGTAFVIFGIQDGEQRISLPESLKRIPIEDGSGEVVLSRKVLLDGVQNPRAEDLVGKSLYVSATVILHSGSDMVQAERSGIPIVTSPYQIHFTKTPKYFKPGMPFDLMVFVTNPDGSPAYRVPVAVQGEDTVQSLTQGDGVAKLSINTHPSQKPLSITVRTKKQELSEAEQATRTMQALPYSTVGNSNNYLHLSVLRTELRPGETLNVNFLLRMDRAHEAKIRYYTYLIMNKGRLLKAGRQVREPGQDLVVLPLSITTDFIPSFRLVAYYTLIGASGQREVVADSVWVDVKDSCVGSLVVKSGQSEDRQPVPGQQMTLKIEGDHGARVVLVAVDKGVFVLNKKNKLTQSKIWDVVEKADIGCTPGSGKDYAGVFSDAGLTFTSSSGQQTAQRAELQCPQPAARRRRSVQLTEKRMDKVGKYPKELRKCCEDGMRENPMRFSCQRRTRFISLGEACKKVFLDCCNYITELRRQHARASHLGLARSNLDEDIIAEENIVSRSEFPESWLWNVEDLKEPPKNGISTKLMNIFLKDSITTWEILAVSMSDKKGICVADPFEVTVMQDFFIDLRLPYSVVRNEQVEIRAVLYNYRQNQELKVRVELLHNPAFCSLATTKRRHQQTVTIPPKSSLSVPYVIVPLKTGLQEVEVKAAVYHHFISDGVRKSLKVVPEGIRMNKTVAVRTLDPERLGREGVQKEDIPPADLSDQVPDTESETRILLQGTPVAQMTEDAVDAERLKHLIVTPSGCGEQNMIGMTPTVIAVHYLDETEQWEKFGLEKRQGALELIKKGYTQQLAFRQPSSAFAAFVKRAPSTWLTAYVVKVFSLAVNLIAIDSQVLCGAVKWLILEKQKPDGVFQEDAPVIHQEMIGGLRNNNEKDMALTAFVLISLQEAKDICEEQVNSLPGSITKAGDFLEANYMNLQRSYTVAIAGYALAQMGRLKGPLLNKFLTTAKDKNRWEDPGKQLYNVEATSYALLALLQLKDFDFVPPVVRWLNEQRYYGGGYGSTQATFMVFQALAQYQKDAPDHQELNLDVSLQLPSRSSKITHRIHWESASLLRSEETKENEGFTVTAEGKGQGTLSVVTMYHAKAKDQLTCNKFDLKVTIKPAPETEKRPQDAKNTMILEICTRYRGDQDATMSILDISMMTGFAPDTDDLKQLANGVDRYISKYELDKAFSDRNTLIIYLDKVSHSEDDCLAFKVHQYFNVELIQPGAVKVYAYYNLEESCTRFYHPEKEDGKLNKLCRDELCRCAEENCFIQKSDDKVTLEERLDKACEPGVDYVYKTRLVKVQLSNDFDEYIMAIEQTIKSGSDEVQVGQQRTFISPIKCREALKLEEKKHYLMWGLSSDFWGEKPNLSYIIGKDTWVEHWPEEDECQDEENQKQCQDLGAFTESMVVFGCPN
UniProt Q7LC44, sequence (whole entry, looked up): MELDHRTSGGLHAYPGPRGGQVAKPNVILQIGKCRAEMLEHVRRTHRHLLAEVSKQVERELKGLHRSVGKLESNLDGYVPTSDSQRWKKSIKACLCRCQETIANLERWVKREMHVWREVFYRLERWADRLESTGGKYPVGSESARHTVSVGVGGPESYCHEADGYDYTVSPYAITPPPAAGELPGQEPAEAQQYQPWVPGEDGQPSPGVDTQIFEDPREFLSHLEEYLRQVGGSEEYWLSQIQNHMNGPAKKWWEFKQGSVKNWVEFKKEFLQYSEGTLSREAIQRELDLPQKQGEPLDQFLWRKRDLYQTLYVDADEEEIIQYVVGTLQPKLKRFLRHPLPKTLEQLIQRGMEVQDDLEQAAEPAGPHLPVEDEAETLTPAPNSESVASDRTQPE
UniProt P63104, sequence (whole entry, looked up): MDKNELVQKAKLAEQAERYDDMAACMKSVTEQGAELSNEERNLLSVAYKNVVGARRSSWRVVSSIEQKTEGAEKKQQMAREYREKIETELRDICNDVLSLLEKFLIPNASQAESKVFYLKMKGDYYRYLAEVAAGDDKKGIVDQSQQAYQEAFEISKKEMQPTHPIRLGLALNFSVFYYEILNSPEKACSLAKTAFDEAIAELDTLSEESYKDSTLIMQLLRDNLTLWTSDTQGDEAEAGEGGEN
UniProt Q14145, sequence (whole entry, looked up): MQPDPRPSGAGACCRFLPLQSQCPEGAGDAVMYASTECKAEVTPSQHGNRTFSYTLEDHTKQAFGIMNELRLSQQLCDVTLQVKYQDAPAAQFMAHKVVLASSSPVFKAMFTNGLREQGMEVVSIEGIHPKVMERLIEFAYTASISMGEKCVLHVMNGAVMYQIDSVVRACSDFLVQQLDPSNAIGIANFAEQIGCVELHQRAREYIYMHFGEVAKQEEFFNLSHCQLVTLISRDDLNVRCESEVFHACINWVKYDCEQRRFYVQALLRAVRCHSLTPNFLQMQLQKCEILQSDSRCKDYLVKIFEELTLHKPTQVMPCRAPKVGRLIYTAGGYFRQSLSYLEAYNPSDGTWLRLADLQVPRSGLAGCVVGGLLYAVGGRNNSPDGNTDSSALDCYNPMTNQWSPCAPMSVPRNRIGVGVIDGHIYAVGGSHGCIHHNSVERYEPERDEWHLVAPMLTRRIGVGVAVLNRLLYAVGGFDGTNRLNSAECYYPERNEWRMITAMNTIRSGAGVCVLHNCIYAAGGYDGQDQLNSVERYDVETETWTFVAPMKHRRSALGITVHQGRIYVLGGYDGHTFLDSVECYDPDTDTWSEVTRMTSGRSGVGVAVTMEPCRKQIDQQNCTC
UniProt Q06911, sequence (whole entry, looked up): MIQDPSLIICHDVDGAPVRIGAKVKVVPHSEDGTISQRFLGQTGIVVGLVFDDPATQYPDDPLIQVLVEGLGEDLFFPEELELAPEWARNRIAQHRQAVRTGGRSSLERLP
UniProt O14786, sequence (whole entry, looked up): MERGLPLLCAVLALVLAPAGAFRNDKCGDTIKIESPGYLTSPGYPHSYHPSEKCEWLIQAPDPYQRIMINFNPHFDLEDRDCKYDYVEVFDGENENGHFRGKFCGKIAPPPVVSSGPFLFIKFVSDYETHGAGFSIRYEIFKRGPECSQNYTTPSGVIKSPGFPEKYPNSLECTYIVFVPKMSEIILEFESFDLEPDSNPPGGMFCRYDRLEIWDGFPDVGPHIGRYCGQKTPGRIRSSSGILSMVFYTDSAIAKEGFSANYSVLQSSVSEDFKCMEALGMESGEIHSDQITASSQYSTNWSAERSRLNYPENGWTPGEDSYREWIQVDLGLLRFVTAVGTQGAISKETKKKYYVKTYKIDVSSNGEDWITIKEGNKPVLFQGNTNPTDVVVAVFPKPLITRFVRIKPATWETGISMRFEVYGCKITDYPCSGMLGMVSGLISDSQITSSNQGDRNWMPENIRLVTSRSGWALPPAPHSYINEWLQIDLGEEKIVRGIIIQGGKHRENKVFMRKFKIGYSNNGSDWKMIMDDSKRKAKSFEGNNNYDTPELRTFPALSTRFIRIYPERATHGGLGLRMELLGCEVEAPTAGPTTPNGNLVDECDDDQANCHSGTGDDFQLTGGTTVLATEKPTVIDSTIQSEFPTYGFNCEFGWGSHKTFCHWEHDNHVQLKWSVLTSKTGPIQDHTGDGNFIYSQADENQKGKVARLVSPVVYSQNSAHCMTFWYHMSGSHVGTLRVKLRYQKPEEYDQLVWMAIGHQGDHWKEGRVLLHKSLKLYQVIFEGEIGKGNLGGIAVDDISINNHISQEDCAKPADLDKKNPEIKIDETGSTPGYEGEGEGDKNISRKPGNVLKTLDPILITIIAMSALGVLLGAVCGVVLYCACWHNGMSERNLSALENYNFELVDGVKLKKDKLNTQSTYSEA

SMILES | target | test | test system | conditions | ΔH [kcal/mol]
CC[C@H](C)[C@H](NC(=O)[C@H](CCCNC(=N)N)NC(C)=O)C(=O)N1CCC[C@H]1C(=O)N[C@@H](COP(=O)(O)O)C(=O)N[C@@H](Cc1ccc(O)cc1)C(=O)N[C@@H](CCCNC(=N)N)C(=O)N[C@@H](Cc1ccc(O)cc1)C(=O)N[C@@H](CCCNC(=N)N)C(N)=O | Activity-regulated cytoskeleton-associated protein, residues 207–277 (ARC, Homo sapiens, UniProt Q7LC44) | binding, isothermal titration calorimetry |  | pH 7.4, 25 °C | -66.5 ± 0.6
OC[C@H]1O[C@@H](OCc2cn([C@@H]3O[C@H](CO)[C@@H](n4cc(CCCCc5cn([C@H]6[C@H](O)[C@@H](O)[C@H](n7cc(CO[C@@H]8O[C@H](CO)[C@H](O)[C@H](O)[C@H]8O)nn7)O[C@@H]6CO)nn5)nn4)[C@H](O)[C@H]3O)nn2)[C@H](O)[C@@H](O)[C@H]1O | lecA | isothermal titration calorimetry |  | 25 °C | -14.3 ± 0.2
CC[C@H](C)[C@H](NC(C)=O)C(=O)N[C@H]1CSSC[C@@H](C(=O)N[C@H](C(N)=O)[C@@H](C)O)NC(=O)[C@H](CCCNC(=N)N)NC(=O)[C@H](Cc2c[nH]cn2)NC(=O)[C@@H]2CCCN2C(=O)CNC(=O)[C@H](Cc2c[nH]c3ccccc23)NC(=O)[C@H](CC(=O)O)NC(=O)[C@H](CCC(N)=O)NC(=O)[C@H](Cc2cn(C)c3ccccc23)NC(=O)[C@H](C(C)C)NC1=O | Complement C3 | ITC |  | pH 7.4, 25 °C | -15.3
CC(=O)N[C@@H](CO)C(=O)N[C@@H](C)C(=O)N[C@@H](CCCCN)C(=O)N[C@@H](C)C(=O)N[C@@H](C)C(=O)N[C@@H](CC(=O)O)C(=O)N[C@@H](CC(=O)O)C(=O)N1CCC[C@H]1C(=O)N[C@@H](CCC(=O)O)C(=O)N[C@@H](CC(N)=O)C(=O)NCC(=O)N[C@@H](CCC(=O)O)C(=O)N[C@@H](CCCNC(=N)N)C(=O)N[C@@H](CCC(=O)O)C(=O)N[C@@H](CO)C(=O)N[C@@H](Cc1c[nH]cn1)C(=O)N[C@H](C(=O)N1CCC[C@H]1C(=O)N[C@H](C(=O)N[C@@H](CO)C(N)=O)C(C)C)[C@@H](C)O | Kelch-like ECH-associated protein 1, Kelch domain (KEAP1, Homo sapiens, UniProt Q14145) | isothermal titration calorimetry | Kelch domain | pH 7, 298.15 K | -15.11 ± 0.08
OC[C@H]1O[C@@H](Oc2ccc(-c3cn([C@H]4[C@H](O)[C@@H](O)[C@H](c5cn([C@H]6[C@H](O)[C@@H](O)[C@H](n7cc(-c8ccc(O[C@@H]9O[C@H](CO)[C@H](O)[C@H](O)[C@H]9O)cc8)nn7)O[C@@H]6CO)nn5)O[C@@H]4CO)nn3)cc2)[C@H](O)[C@@H](O)[C@H]1O | lecA | isothermal titration calorimetry |  | 25 °C | -16.8 ± 0.5
[N-]=[N+]=NCCNC(=O)c1ccc(S[C@@H]2O[C@H](CO)[C@H](O)[C@H](O)[C@H]2O)cc1 | lecA | binding, isothermal titration calorimetry |  | 25 °C | -11.7 ± 0.382
C#Cc1ccc(O[C@@H]2O[C@H](CO)[C@H](O)[C@H](O)[C@H]2O)cc1 | lecA | isothermal titration calorimetry |  | 25 °C | -8.7 ± 1
Cc1ccc(OCC(=O)N[C@@H](Cc2cn(CCNC(=O)c3ccc(S[C@@H]4O[C@H](CO)[C@H](O)[C@H](O)[C@H]4O)cc3)nn2)C(=O)NCCO)cc1 | lecA | binding, isothermal titration calorimetry |  | 25 °C | -10.8
OC[C@H]1O[C@@H](OCc2cn([C@@H]3O[C@H](CO)[C@@H](n4cc(-c5ccc(-c6cn([C@H]7[C@H](O)[C@@H](O)[C@H](n8cc(CO[C@@H]9O[C@H](CO)[C@H](O)[C@H](O)[C@H]9O)nn8)O[C@@H]7CO)nn6)cc5)nn4)[C@H](O)[C@H]3O)nn2)[C@H](O)[C@@H](O)[C@H]1O | lecA | isothermal titration calorimetry |  | 25 °C | -22.9 ± 1.9
CC[C@H](C)[C@H](NC(C)=O)C(=O)N[C@H]1CSSC[C@@H](C(=O)N[C@H](C(N)=O)[C@@H](C)O)NC(=O)[C@H](CCCNC(=N)N)NC(=O)[C@H](Cc2c[nH]cn2)NC(=O)[C@H](C)NC(=O)CNC(=O)[C@H](Cc2c[nH]c3ccccc23)NC(=O)[C@H](CC(=O)O)NC(=O)[C@H](CCC(N)=O)NC(=O)[C@H](Cc2ccc(O)cc2)NC(=O)[C@H](C(C)C)NC1=O | Complement C3 | ITC |  | pH 7.4, 25 °C | -13.9
CC[C@H](C)[C@H](NC(=O)CNC(C)=O)C(=O)N[C@@H](CCCNC(=N)N)C(=O)N[C@@H](CCC(=O)O)C(=O)N[C@@H](C)C(=O)N[C@H](C(=O)N[C@@H](CC(C)C)C(=O)N[C@@H](CCCNC(=N)N)C(=O)N[C@@H](C)C(=O)N[C@@H](Cc1c[nH]c2ccccc12)C(=O)N[C@@H](CCC(=O)O)C(=O)N[C@@H](CCCNC(=N)N)C(=O)N[C@@H](CCCNC(=N)N)C(=O)N[C@@H](Cc1ccc(O)cc1)C(=O)NCC(=O)N[C@@H](Cc1ccccc1)C(=O)N1CCC[C@H]1C(=O)N[C@@H](CCCNC(=N)N)C(=O)N1CCC[C@H]1C(=O)N[C@@H](CC(C)C)C(=O)N[C@@H](CCCNC(=N)N)C(=O)N[C@@H](CO)C(=O)N[C@@H](CCC(=O)O)C(N)=O)[C@@H](C)O | Antirepressor protein CarS (carS, Myxococcus xanthus, UniProt Q06911) | ITC |  | pH 7.5, 30 °C | -10.88 ± 0.07
O=C(COCCCc1ccccc1)N[C@@H](Cc1cn(CCNC(=O)c2ccc(S[C@@H]3O[C@H](CO)[C@H](O)[C@H](O)[C@H]3O)cc2)nn1)C(=O)NCCO | lecA | binding, isothermal titration calorimetry |  | 25 °C | -10.5 ± 0.621
N=C(N)NCCC[C@H](NC(=O)[C@@H]1CCCN1C(=O)[C@H](CC(N)=O)NC(=O)[C@H](CCCNC(=N)N)NC(=O)[C@@H]1CCCN1C(=O)[C@H](CCCCN)NC(=O)[C@H](CCCCN)NC(=O)[C@H](CCC(N)=O)NC(=O)[C@H](CC(=O)O)NC(=O)[C@@H](N)Cc1c[nH]c2ccccc12)C(=O)O | Neuropilin-1 (NRP1, Homo sapiens, UniProt O14786) | binding, ITC |  | pH 7.4, 30 °C | -17
O=C(Cc1ccccc1O)N[C@@H](Cc1cn(CCNC(=O)c2ccc(S[C@@H]3O[C@H](CO)[C@H](O)[C@H](O)[C@H]3O)cc2)nn1)C(=O)NCCO | lecA | binding, isothermal titration calorimetry |  | 25 °C | -9.89 ± 0.143
CC(C)C[C@H](NC(=O)[C@@H]1CCCN1C(=O)[C@H](Cc1c[nH]c2ccccc12)NC(=O)[C@H](COP(=O)(O)O)NC(=O)[C@H](CO)NC(=O)[C@H](CS)NC(=O)[C@H](CCCCN)NC(=O)[C@H](CO)NC(=O)CNC(=O)CNC(=O)[C@H](C)N)C(=O)N1CCC[C@H]1C(=O)N[C@@H](CCC(N)=O)C(=O)N1CCC[C@H]1C(=O)N[C@@H](CO)C(=O)O | YWHAZ (Homo sapiens, UniProt P63104) | binding, ITC |  | pH 7.4, 37 °C | -4.3 ± 0.215

For quick reference, copied from above:
SMILES | target | test | test system | conditions | ΔH [kcal/mol]
CC[C@H](C)[C@H](NC(=O)CNC(C)=O)C(=O)N[C@@H](CCCNC(=N)N)C(=O)N[C@@H](CCC(=O)O)C(=O)N[C@@H](C)C(=O)N[C@H](C(=O)N[C@@H](CC(C)C)C(=O)N[C@@H](CCCNC(=N)N)C(=O)N[C@@H](C)C(=O)N[C@@H](Cc1c[nH]c2ccccc12)C(=O)N[C@@H](CCC(=O)O)C(=O)N[C@@H](CCCNC(=N)N)C(=O)N[C@@H](CCCNC(=N)N)C(=O)N[C@@H](Cc1ccc(O)cc1)C(=O)NCC(=O)N[C@@H](Cc1ccccc1)C(=O)N1CCC[C@H]1C(=O)N[C@@H](CCCNC(=N)N)C(=O)N1CCC[C@H]1C(=O)N[C@@H](CC(C)C)C(=O)N[C@@H](CCCNC(=N)N)C(=O)N[C@@H](CO)C(=O)N[C@@H](CCC(=O)O)C(N)=O)[C@@H](C)O | Antirepressor protein CarS (carS, Myxococcus xanthus, UniProt Q06911) | ITC |  | pH 7.5, 30 °C | -10.88 ± 0.07
